Assay results from different studies.
Compare with care: the assays were run in different laboratories.
Chain of UniProt P18089 (whole entry, looked up): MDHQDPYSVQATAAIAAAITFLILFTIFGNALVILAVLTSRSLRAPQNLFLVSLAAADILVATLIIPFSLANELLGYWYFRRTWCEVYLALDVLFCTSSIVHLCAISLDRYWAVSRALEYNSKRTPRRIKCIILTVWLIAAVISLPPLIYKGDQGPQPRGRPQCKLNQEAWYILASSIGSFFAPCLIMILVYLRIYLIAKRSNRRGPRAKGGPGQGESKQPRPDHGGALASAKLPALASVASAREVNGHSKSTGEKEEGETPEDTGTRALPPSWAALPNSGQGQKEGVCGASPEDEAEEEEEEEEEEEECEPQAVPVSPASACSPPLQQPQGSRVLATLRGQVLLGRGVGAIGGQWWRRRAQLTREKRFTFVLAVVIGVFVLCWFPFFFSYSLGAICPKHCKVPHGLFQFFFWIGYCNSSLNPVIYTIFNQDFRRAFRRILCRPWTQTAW
Chain of UniProt Q96S44 (whole entry, looked up): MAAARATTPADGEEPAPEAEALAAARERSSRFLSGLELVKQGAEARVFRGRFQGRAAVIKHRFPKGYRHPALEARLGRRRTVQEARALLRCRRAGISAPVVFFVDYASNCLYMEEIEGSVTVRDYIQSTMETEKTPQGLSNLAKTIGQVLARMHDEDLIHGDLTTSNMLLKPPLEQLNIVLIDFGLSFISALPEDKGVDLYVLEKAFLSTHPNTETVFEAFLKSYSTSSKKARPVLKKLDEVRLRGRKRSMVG

| SMILES | target or system | test | test system | setting | how to read | quantity | result |
| --- | --- | --- | --- | --- | --- | --- | --- |
| COc1cc(Nc2ncc(F)c(Nc3ccc4c(n3)NC(=O)C(C)(C)O4)n2)cc(OC)c1OC | Alpha-2B adrenergic receptor (ADRA2B, Homo sapiens, UniProt P18089) | – | – | – | – | IC50 | > 10 µM |
| COc1cc2c(cc1OC)CN(CCc1ccc(NC(=O)c3cccc4c(=O)c5cccc(OC)c5[nH]c34)cc1)CC2 | – | – | CD-1 mouse, male, plasma | intraperitoneal, 30 mg/kg | – | half-life | 18.7 h |
| CC(C)CC(=O)OC[C@H]1O[C@@](C#N)(c2ccc3c(N)ncnn23)[C@H](O)[C@@H]1O | – | – | hepatocyte-free incubation solution control | – | – | half-life | > 6.18 h |
| CCC[C@@](N)(CO)CCc1ccc(OCCCCCC(C)C)cc1 | – | – | dog, male hounds, plasma | oral capsule, 10 mg/kg, median | – | half-life | 20.7 h |
| C[C@H]1CN(c2n[nH]c3nc(N[C@H]4CC[C@H](NS(=O)(=O)CCC(F)(F)F)CC4)ncc23)CCO1 | EKC/KEOPS complex subunit TP53RK (TP53RK, Homo sapiens, UniProt Q96S44) | inhibitor, Kinobeads competition profiling | – | 0.16 µM | baseline: vehicle | relative abundance | 0.95 |
| C[C@]1(CO)Cc2ncn(-c3ccc(C#N)c(Cl)c3)c2C(=O)O1 | – | – | human, plasma | 80 mg, first dose fasted | – | half-life | 4.8 h |
| CO[C@H]1C[C@@H]2CC[C@@H](C)[C@@](O)(O2)C(=O)C(=O)N2CCCC[C@H]2C(=O)O[C@H]([C@H](C)C[C@@H]2CC[C@@H](OC(=O)NCCOCCOCCOCCOCCOCCOCCOCCOCCC(=O)N3CCc4cc(Cn5nc(-c6ccc7oc(N)nc7c6)c6c(N)ncnc65)ccc4C3)[C@H](OC)C2)C[C@@H](O)[C@H](C)/C=C(\C)[C@@H](O)[C@@H](OC)C(=O)[C@H](C)C[C@H](C)/C=C/C=C/C=C/1C | – | phase 1 dose escalation, measured: mucositis | advanced solid tumour patients | intravenous, 12 mg weekly, any grade | – | TRAE incidence | 50% |
| CC(C)C[C@@H](NC(=O)[C@H](Cc1ccccc1)NC(=O)CNC(=O)[C@@H](C)NC(=O)[C@H](Cc1ccc(O)cc1)NC(=O)[C@@H]1CCCN1C(=O)[C@@H]1CCCN1C(=O)c1ccc[n+](C)c1)C(=O)O | – | – | rat brain cortex homogenate | 100 µM, pH 7.4, 37 °C | – | half-life | 0.0667 h |
| Cn1ncc(-c2nc(N[C@H]3CC[C@H](N)CC3)ncc2Cl)c1CC1CC1 | – | HPLC-MS/MS | patients, plasma | oral, 8 mg, day 5 | – | half-life | 45 h |
| CC/C(=C(\c1ccccc1)c1ccc(OCCN(C)C)cc1)c1ccccc1 | – | – | CD-1 mouse, male, lung | intraperitoneal, 3 mg/kg | – | half-life | 6.63 h |
| CCC(CNc1nc(-c2cn3ccnc3cc2C)nc2ccccc12)c1ccccc1 (stereo not drawn) | – | LC-MS parent depletion | human liver microsomes | – | – | half-life | 0.15 h |
| COc1cccc2c1CCCC2CCCN1CCN(C2CCCCC2)CC1 (stereo not drawn) | – | – | CD-1 mouse, male, plasma | intraperitoneal, 1 mg/kg | – | half-life | 3.33 h |
| CC[C@H](C)[C@@H]1NC(=O)[C@@H]2CCCN2C(=O)[C@H](CC(C)C)NC(=O)[C@H](CC(C)C)NC(=O)CNC(=O)[C@@H](NC(=O)[C@@H](NC(=O)[C@H](CC(=O)O)NC(=O)CNC(=O)[C@@H](NC(=O)[C@H](C)NC(=O)CNC(=O)[C@H](CCCCN)NC(=O)[C@H](CC(C)C)NC(=O)[C@H](CC(C)C)NC(=O)[C@H](CCCCN)NC(=O)CNC(=O)[C@@H](NC(=O)[C@@H](N)CC(C)C)C(C)C)C(C)C)C(C)C)CSSC[C@@H](C(=O)O)NC1=O | – | RNA-seq, measured: Prss30 mRNA | mouse traumatic brain injury, frontal cortex and hippocampus | dose not given | baseline: TBI plus compound vs TBI | log2 fold change | -2.24 |
| [Cl][Ru-]([Cl])([Cl])[Cl].[Na+].c1ccc2[nH]ncc2c1.c1ccc2[nH]ncc2c1 | – | ICP-MS, measured: total ruthenium | advanced solid tumour patients, plasma | iv infusion, 160 mg/m2, cycle 1 cohort mean | – | half-life | 182 h |
| COc1cc2c(Oc3ccc4[nH]c(C)cc4c3F)ccnc2cc1OCC1(N)CC1 | – | – | paediatric recurrent refractory sarcoma | 12 mg | – | Vomiting incidence | 18.2% |

For quick reference, copied from above:
| SMILES | target or system | test | test system | setting | how to read | quantity | result |
| --- | --- | --- | --- | --- | --- | --- | --- |
| CCC(CNc1nc(-c2cn3ccnc3cc2C)nc2ccccc12)c1ccccc1 (stereo not drawn) | – | LC-MS parent depletion | human liver microsomes | – | – | half-life | 0.15 h |
| CC(C)CC(=O)OC[C@H]1O[C@@](C#N)(c2ccc3c(N)ncnn23)[C@H](O)[C@@H]1O | – | – | hepatocyte-free incubation solution control | – | – | half-life | > 6.18 h |
